Published values pooled from the literature.
Protocols differ between the studies behind these lines. “And” joins repeats or separate records; there may be more than shown. ± marks the error that the study gave.

Cc1cc(Br)cc2c1NC(=O)/C2=C1\SC(=S)NC1=O
viability loss (NSCLC cells; MTT; concentration not given, 48 h): 20 to 50%

COc1cc2ncnc(Nc3ccc(Oc4ccccc4)c(C)c3C)c2cc1OC.Cl
Bliss synergy score (HepG2 (NRAS Q61L); resazurin; concentration not given, 72 h, with: trametinib; direction not given): -189%

CC1=CC(=O)c2ccccc2C1=O
selectivity index (HuCC-A1; MTT; baseline: IC50 MRC-5 over IC50 HuCC-A1): 0.98

OCc1ccc(-c2nn(Cc3cccc(Cl)c3)c3ccccc23)o1
IC50 (RBE; cell viability, CellTiter-Glo): 1410 nM

O=C(/C=C/C=C/C=C/C1CCCCC1)NC1=C[C@@](O)(/C=C/C=C/C=C/C(=O)NC2=C(O)CCC2=O)[C@@H]2O[C@@H]2C1=O
GI50 (NCI-H647; cell growth, CellTiter-Glo; 78 h): 24000 nM

C=Cc1c2[n-]c(c1C)/C=c1\[n-]/c(c(C)c1C=C)=C\c1[n-]c(c(CCC(=O)O)c1C)/C=c1\[n-]c(c(C)c1CCC(=O)O)=C2.[Sn+4]
fold change (SH-SY5Y; RNA-seq, measured: RGS3 mRNA; 5 µM, 5 h; baseline: untreated cells): 1.81

CCN(Cc1c(F)cccc1C(F)(F)F)c1ccc(CO)c(Cl)c1
IC50 (RBE; cell viability, CellTiter-Glo): 150 nM

CCn1c2ccc(CNCCOCCOCCOCCC(=O)NCCOc3ccc(CCc4nc5cc(-c6c(C)noc6C)ccc5n4CCN4CCOCC4)cc3F)cc2c2ccc(-c3cc(C)cs3)cc21
DUSP5 mRNA level (NCI-H1299 expressing p53 Y220C; RT-qPCR; 3 µM, 24 h; baseline: DMSO): ~3 fold

Cn1cc(-n2cnc3c(NCc4nc5cc(Cl)c(Cl)cc5[nH]4)nc(N4CCOCC4)nc32)cn1
mRNA level (MDA-MB-231; qRT-PCR, measured: RAD51; 0.05 µM, 6 h, unit not given; baseline: DMSO): 0.635 and 0.619

CCN(Cc1ccccc1C)c1ccc(CO)c(Cl)c1
IC50 (RBE; cell viability, CellTiter-Glo): 510 nM

Nc1cccc2c1C(=O)N(C1CCC(=O)NC1=O)C2=O (centres unmarked)
viability (MM1.S; XTT; 0.6 µM; baseline: untreated): 39%

COc1cnc2cccc(N3CCc4c(cc(Cn5ccnc5C)cc4-c4cn(C)nc4C(F)(F)F)C3=O)c2c1
EC50 (Raji; cell growth, inhibitor; 120 h): 17300 nM

Cc1nn(-c2ccccc2C(C)C)c(C)c1C(=O)Nc1ccc2ccccc2n1
inhibition (Wnt-HEK293; Wnt/β-catenin signalling, inhibitor, luciferase reporter; 1 µM): > 70%

CC(C)n1nc(-c2cc3cc(O)ccc3[nH]2)c2c(N)ncnc21
beat rate (hiPSC-derived cardiomyocytes (iCell); impedance (xCELLigence Cardio); concentration not given, 2 h; baseline: control): 81.7%

Cc1c(C(=O)O)ccc2c3n(nc12)[C@@H]1[C@H](C3)N(CC2CC2)[C@@]2(C(=O)Nc3cc(Cl)ccc32)[C@H]1c1cccc(Cl)c1F
GI50 (LS180 (MDM2 non-amplified); cell growth, alamarBlue; 120 h): 16 nM

COc1ccc(-n2nc(C(C)=O)s/c2=N\N=C(/C)c2ccc(NC(=O)c3ccc(Cl)cc3)cc2)cc1
viability (HepG2; 0.078 µM): 84%

Clc1ccc(N/N=C(\c2ccccc2)c2ccccn2)nc1
apoptotic cells (BT-474; annexin V flow cytometry; 0.5 µM, 48 h): ~20%

Cc1ccc2c(c1)C(=O)[C@]1(O)CCN(c3ccc4nc(C)ccc4c3)C1=N2.Cl
phosphorylation (murine Trp53-/- Pten-/- cells; measured: SRC and ERK1/2; concentration not given; baseline: untreated): 2 to 3 fold

Cc1nn(-c2nc3c(F)cc(F)cc3s2)c(O)c1C(c1ccc(C(F)(F)F)cc1)c1c(C)nn(-c2nc3c(F)cc(F)cc3s2)c1O
phospho-IRF3 to IRF3 ratio (THP1-Dual; western blot; 10 µM, with: HT-DNA; baseline: DMSO): 0.863 and 0.935 and 0.807

CC(=O)O[C@@]12CO[C@@H]1C[C@H](O)[C@@]1(C)C(=O)[C@H](O)C3=C(C)[C@@H](OC(=O)[C@H](O)[C@@H](NC(=O)OC(C)(C)C)c4ccccc4)C[C@@](O)([C@@H](OC(=O)c4ccccc4)[C@H]21)C3(C)C
CD133-positive cells (4T1; flow cytometry; concentration not given; baseline: PBS): 3 fold

O=C1CC[C@H](N2Cc3cc(N4CCN(CC5CCN(c6ccc([C@@H]7c8ccc(O)cc8CC[C@@H]7c7ccccc7)cc6)CC5)CC4)ccc3C2=O)C(=O)N1
GI50 (T47D expressing ESR1 Y537S; cell growth, CellTiter-Glo; 120 h): 8 nM

CC(C)NCC(O)c1ccc(O)c(O)c1 (centres unmarked)
sarcomere length (mouse ventricular cardiomyocytes; dose not given, 0.051 s): 1.8 µm

C=CCn1c(=O)c2cnc(Nc3ccc(N4CCN(C)CC4)cc3)nc2n1-c1ccc2c(n1)[C@@](O)(CC)CC2
EdU-negative S phase cells (NCI-H1048; flow cytometry; concentration not given): 24.6%

Cc1ccc(NC(=O)c2ccc(CN3CCN(C)CC3)cc2)cc1Nc1nc(-c2cccnc2)cs1
beat rate (hiPSC-derived cardiomyocytes (iCell); impedance (xCELLigence Cardio); concentration not given, 2 h; baseline: control): 99.5%

CCn1cc(-c2cc(Cn3ccoc3=N)cc3c2CCN([C@@H](C)c2cc(OC)ccn2)C3=O)c(C(F)(F)F)n1
EC50 (NCI-H1373; cell growth, inhibitor; 120 h): > 30000 nM

CCCOc1ccc(-c2ccc(C#N)cc2)cc1
number of downregulated genes (BeWo; RNA sequencing; 500 µM, high dose): 673

NC(=O)NOCCCCCCCCCCCCCC[P+](c1ccccc1)(c1ccccc1)c1ccccc1.O=C([O-])C(F)(F)F
cell confluence (HCT-116; cell growth, live-cell imaging; 2 µM, control at 90% confluence): 6.39%

Cn1cc(Nc2nccc(-c3ccc4c(c3)CN(C3COC3)CC[C@H]4NC(=O)c3cn(C(C)(C)C)nn3)n2)cn1
pathway activation z-score (mouse splenic B cells; measured: IL-9 signalling; 30 mg/kg, IgD-activated in vivo; baseline: vehicle, direction not given): 1.63

Clc1nc(NCc2ccco2)c2[nH]cnc2n1
ΔPSI (iPSC-derived cardiomyocytes; RNA-seq, measured: BCL11A chr2 exon ending 60468833; unit not given; baseline: DMSO minus compound): -0.306

O=C(Nc1nnc2n3c(=S)[nH][nH]c3nc(-c3ccc(Cl)cc3)c1-2)c1ccccc1
cell growth (NCI-H322M; SRB; 10 µM, NCI60 single-dose screen; baseline: untreated): 98.6%

C[C@H](Nc1ccc2c(c1)OCCn1cc(N3C(=O)OC[C@H]3C(F)F)nc1-2)C(N)=O
IC50 (EFM-19; growth rate inhibition, CellTiter-Glo; 120 h): 21.9 nM

CCN(Cc1ccccc1Cl)c1ccc(CO)c(Cl)c1
IC50 (RBE; cell viability, CellTiter-Glo): 230 nM

Cn1c(Nc2nc3ccc(C(F)(F)F)cc3s2)nc2cc(C(=O)NCCOCCO)ccc21
fold change (SH-SY5Y; RNA-seq, measured: FHL2 mRNA; 5 µM, 5 h; baseline: untreated cells): 2.04

Cc1cnc(NC2CCOCC2)nc1-n1cnc(C(=O)NC(CN)c2cc(F)cc(Cl)c2)c1 (centres unmarked)
S phase cells (Rec1; flow cytometry; 1 µM, 48 h): 19.1%

COc1nc(NCc2cn(-c3ccc(C(=O)Nc4ccccc4)cc3)nn2)nc(OC)n1
apoptotic cells (HCT-116; annexin V-FITC/PI; IC50, 24 h; baseline: untreated): 38.1 fold

CCN(Cc1cccnc1)c1ccc(CO)c(Cl)c1
IC50 (RBE; cell viability, CellTiter-Glo): 370 nM

NC(=O)NOCCCCCCCCCCCCCCCCCCCC[P+](c1ccccc1)(c1ccccc1)c1ccccc1.O=C([O-])C(F)(F)F
cell confluence (HCT-116; cell growth, live-cell imaging; 0.05 µM, control at 90% confluence): 91 ± 3.05%

O=P1(C2CCCCC2)CCCCC1
IL-6 level (SW-620; ELISA; IC50, 72 h): 2.1 ± 0.45 pg/mL

C=CC1=C(C)c2cc3[n-]c(cc4nc(cc5[n-]c(cc1n2)c(C)c5C=C)C(C)=C4CCC(=O)O)c(CCC(=O)O)c3C.[Zn+2]
fold change (SH-SY5Y; RNA-seq, measured: TFPI2 mRNA; 5 µM, 5 h; baseline: untreated cells): 2.16

Cn1cc(-c2ccc(-c3cncc(Cl)c3N3CCC4(CCNC4=O)CC3)cc2)cn1
fold change in expression (COLO 205; microarray, measured: FosB; concentration not given, 4 h; baseline: untreated cells): 2.13

CC1(C)CCC(CN2CCN(c3ccc(C(=O)NS(=O)(=O)c4ccc(NCC5CCOCC5)c([N+](=O)[O-])c4)c(Oc4cnc5[nH]ccc5c4)c3)CC2)=C(c2ccc(Cl)cc2)C1
viable cells (THP-1; annexin V/PI flow cytometry, measured: annexin V-/PI-; 3.2 µM, 24 h): 85.7%

CC/C(=N\NC(=O)NCc1cccc(O)c1)c1ccc(O)c(C)c1O
protein level (SK-OV-3; Western blot, measured: YAP; 10 µM, 6 h, 3D gellan gum culture, unit not given; baseline: β-actin): 0.86 ± 0.16

Cc1cccc(-c2[nH]c(CNc3ccccc3F)nc2-c2ccc3ncnn3c2)n1
IFN-gamma production (CD8+ T cells from myeloma patient; ELISA; human; 0.5 µM, 192 h): 1.11% and 1.05% and 1.32% and 1.1% and 1% and 1.19%

NC(=O)NOCCCCCCCCCC[P+](c1ccccc1)(c1ccccc1)c1ccccc1.O=C([O-])C(F)(F)F
cell confluence (HCT-116; cell growth, live-cell imaging; 5 µM, control at 90% confluence): 67%

CCn1cc(-c2cc(Cn3ccnc3)cc3c2CCN([C@H](c2cc(OC)ccn2)C2CC2)C3=O)c(C(F)(F)F)n1
EC50 (Caov-3; cell growth, inhibitor; 120 h): 16700 nM

Nc1ncnc2c1ncn2[C@@H]1O[C@H](CO)[C@@H](O)[C@H]1O
viability (activated human T cells; 3.16 µM, 72 h; higher = more viable cells): 82.4 a.u. and 80.5 a.u. and 86.3 a.u.

NC(=O)NOCCCCCCCCCCCC[P+](c1ccccc1)(c1ccccc1)c1ccccc1.O=C([O-])C(F)(F)F
cell confluence (HCT-116; cell growth, live-cell imaging; 3 µM, control at 90% confluence): 8.66 ± 1.48%

OCc1coc(-c2nn(Cc3ccccc3)c3ccccc23)n1
inhibition (RBE; cell viability; 46 µM): < 50%

COc1ccc(COc2ccc(Cc3cnc(N)nc3N)cc2OC)cc1
cell index (hiPSC-derived cardiomyocytes (iCell); impedance; concentration not given, 24 h; baseline: control): 98.1%

NC(=O)NO
cell confluence (HCT-116; cell growth, live-cell imaging; 250 µM, control at 90% confluence): 23 ± 4.3%
